Published values gathered from unrelated publications.
Protocols differ between the studies behind these lines. “And” joins repeats or separate records; there may be more than shown. Numbers after ± are the reported error.
Gria1/Gria2: Glutamate receptor AMPA 1/2 (Gria1/Gria2, Rattus norvegicus, UniProt P19490+P19491)
Sequence of UniProt P19491 (whole entry, looked up): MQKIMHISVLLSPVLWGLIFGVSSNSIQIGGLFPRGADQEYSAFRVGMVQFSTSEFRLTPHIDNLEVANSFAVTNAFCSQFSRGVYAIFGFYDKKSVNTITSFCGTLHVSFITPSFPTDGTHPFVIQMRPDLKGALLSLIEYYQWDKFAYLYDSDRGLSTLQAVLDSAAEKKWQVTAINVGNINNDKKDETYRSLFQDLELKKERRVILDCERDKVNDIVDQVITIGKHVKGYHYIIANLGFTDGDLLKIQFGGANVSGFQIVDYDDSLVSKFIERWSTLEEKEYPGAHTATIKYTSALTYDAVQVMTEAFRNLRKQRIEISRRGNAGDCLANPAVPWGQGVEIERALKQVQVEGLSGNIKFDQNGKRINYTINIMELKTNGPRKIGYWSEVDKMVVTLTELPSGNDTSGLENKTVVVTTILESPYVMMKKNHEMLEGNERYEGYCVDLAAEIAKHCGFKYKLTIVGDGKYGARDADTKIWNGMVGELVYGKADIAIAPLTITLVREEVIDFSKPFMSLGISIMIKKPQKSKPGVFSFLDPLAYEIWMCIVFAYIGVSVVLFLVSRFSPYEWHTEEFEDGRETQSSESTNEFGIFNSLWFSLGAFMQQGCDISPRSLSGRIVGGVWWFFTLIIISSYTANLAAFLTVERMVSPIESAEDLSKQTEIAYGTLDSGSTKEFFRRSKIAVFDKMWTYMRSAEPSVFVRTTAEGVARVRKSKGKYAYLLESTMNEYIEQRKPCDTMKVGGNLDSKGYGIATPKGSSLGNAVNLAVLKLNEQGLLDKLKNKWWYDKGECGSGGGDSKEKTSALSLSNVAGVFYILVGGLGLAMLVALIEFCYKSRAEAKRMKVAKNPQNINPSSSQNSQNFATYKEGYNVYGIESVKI
Sequence of UniProt P19490 (whole entry, looked up): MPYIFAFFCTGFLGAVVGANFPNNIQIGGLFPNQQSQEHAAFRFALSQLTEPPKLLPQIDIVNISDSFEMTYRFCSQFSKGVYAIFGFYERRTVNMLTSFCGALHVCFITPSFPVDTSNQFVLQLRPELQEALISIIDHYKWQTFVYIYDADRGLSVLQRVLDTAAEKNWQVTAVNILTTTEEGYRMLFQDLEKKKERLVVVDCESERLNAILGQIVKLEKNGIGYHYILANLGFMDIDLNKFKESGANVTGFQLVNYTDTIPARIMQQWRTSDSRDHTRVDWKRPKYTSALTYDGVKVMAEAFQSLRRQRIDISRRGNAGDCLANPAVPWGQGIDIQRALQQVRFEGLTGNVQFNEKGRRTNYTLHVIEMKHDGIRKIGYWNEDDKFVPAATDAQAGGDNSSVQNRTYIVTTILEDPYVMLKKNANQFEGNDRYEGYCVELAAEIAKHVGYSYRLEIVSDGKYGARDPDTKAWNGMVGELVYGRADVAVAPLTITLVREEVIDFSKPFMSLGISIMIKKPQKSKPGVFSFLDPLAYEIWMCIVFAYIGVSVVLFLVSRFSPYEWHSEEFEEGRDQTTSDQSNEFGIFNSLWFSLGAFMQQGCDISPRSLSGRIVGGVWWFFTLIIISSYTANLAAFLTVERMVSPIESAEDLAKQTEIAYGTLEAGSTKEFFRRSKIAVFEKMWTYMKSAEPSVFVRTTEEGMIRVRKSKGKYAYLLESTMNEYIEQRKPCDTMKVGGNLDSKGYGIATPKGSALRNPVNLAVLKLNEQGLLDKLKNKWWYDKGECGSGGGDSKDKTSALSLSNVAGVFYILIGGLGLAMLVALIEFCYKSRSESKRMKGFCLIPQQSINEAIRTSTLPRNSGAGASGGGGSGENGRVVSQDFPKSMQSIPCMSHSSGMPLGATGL
Sodium- and chloride-dependent glycine transporter 2: Sodium- and chloride-dependent glycine transporter 2 (Homo sapiens, UniProt Q9Y345)
Sequence of UniProt Q9Y345 (whole entry, looked up): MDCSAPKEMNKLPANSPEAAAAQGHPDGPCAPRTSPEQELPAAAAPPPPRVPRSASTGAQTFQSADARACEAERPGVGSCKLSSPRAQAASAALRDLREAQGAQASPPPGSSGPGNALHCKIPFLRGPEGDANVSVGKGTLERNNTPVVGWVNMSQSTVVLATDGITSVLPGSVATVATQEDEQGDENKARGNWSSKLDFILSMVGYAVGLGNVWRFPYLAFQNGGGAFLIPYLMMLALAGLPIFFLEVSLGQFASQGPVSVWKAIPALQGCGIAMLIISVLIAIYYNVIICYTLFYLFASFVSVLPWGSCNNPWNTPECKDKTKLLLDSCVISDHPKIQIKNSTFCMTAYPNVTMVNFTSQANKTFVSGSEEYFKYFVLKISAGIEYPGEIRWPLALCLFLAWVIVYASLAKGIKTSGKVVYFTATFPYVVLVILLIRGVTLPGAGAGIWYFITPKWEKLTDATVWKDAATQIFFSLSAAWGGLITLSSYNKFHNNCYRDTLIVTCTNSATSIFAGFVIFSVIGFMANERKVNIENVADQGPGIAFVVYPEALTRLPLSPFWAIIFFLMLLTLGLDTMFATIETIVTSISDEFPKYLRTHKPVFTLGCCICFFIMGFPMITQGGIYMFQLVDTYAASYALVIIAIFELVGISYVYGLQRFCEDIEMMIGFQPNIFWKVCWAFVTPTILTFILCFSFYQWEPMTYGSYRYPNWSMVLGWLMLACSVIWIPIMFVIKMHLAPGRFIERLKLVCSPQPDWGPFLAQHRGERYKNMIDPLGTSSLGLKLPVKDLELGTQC
GAP50: Glideosome-associated protein 50 (GAP50, Plasmodium falciparum, UniProt Q8I2X3)
Sequence of UniProt Q8I2X3 (whole entry, looked up): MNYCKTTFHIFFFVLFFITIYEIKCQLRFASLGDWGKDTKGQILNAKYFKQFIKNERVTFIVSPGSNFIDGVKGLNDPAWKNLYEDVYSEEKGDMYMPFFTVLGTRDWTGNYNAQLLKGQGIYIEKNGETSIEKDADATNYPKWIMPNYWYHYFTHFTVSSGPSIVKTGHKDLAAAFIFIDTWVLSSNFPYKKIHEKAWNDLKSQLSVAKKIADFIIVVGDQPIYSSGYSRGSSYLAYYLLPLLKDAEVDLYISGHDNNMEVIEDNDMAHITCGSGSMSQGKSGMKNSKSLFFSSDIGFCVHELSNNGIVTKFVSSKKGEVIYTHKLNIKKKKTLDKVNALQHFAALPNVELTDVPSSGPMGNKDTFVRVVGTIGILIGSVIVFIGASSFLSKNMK
17-beta-hydroxysteroid dehydrogenase 13: 17-beta-hydroxysteroid dehydrogenase 13 (Homo sapiens, UniProt Q7Z5P4)
Sequence of UniProt P46089 (whole entry, looked up): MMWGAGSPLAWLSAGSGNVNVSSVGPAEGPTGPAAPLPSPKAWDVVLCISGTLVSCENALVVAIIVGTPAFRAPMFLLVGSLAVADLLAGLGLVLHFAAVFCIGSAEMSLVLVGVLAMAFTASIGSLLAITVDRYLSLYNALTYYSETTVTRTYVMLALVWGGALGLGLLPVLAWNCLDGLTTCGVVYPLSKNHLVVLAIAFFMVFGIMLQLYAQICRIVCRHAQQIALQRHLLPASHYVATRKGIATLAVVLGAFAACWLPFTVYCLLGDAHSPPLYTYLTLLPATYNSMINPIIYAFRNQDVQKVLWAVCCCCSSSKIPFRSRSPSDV
Sequence of UniProt P68104 (whole entry, looked up): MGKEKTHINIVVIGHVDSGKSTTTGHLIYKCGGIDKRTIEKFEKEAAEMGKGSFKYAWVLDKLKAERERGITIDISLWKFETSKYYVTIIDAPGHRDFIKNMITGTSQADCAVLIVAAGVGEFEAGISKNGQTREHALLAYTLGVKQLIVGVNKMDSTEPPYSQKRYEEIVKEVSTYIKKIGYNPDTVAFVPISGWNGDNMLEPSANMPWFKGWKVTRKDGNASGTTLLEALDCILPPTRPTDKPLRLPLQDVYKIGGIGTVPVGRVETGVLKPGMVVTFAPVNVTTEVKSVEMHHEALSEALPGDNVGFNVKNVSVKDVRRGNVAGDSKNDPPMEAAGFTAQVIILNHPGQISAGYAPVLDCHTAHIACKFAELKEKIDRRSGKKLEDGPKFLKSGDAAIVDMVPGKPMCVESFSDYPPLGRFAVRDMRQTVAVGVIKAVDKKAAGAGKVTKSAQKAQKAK
Sequence of UniProt Q7Z5P4 (whole entry, looked up): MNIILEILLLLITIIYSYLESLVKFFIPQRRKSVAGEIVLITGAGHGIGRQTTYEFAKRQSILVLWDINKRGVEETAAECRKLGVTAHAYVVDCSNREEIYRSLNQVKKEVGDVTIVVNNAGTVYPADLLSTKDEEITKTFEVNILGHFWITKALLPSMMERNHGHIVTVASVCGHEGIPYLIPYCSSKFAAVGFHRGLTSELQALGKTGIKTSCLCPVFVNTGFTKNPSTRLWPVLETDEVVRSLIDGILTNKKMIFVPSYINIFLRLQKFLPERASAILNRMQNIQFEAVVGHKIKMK
Sequence of UniProt P17706 (whole entry, looked up): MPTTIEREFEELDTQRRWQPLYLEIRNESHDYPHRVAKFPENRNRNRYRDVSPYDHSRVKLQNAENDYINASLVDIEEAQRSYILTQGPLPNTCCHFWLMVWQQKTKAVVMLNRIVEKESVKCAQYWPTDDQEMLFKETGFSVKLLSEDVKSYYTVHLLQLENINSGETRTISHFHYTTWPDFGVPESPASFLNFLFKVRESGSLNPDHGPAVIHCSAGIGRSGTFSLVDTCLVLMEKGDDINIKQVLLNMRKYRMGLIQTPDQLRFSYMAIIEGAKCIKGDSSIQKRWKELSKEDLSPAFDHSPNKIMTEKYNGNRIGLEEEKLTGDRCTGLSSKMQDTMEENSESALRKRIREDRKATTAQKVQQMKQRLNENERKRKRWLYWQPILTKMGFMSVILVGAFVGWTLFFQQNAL
Sequence of UniProt P30405 (whole entry, looked up): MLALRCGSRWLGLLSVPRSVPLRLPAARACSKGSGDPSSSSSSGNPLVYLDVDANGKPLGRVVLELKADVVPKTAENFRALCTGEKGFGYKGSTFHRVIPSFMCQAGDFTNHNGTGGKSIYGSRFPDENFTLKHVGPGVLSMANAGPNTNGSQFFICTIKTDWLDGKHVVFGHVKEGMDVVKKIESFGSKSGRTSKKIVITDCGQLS
Sequence of UniProt P25999 (whole entry, looked up): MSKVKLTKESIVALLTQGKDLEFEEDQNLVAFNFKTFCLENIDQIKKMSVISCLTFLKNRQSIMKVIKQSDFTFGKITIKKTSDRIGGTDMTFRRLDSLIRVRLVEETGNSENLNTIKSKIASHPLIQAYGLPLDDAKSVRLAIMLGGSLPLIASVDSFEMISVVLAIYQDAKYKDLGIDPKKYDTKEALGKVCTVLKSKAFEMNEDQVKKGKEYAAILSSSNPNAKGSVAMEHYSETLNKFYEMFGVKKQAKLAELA

For `O=C(O)Cc1cc2c(cc1C(=O)c1ccc(Cl)cc1Cl)OCO2`, “deactivation time constant” read 10.6 ± 0.7 ms (Gria1/Gria2; whole-cell patch clamp; HEK-293T; concentration not given, added: glutamate).
For `CC(C)[C@@H]1NC(=O)[C@H](Cc2ccccc2)NC(=O)CSC[C@@H](C(N)=O)NC(=O)[C@H](CCC(=O)O)NC(=O)[C@H](CO)NC(=O)[C@H](Cc2c[nH]c3cccc(Cl)c23)NC(=O)[C@H](C2CCCCC2)NC(=O)[C@H](C(C)C)NC(=O)[C@H](Cc2ccc(O)cc2)NC(=O)[C@H](CC(=O)O)NC(=O)[C@H](Cc2c[nH]c3ccccc23)NC(=O)[C@H](Cc2ccc(N)nc2)NC(=O)[C@H](Cc2c[nH]c3ccc(Cl)cc23)NC(=O)[C@H](CCC(=O)O)NC1=O`, the remaining activity was 92.8% (Interleukin-1 receptor-like 2 (IL1RL2, Homo sapiens, UniProt Q9HB29); reporter gene (SEAP), inhibitor, HEK-Blue IL-36R reporter; HEK-Blue IL-36R cells; 0.015 µM, 6 h, added: IL-36β 3 ng/mL).
`Cc1ccsc1C(=CCCSC1CCN(C)CC1C(=O)O)c1sccc1C` (stereo not shown): “remaining specific binding” 110 ± 5.9% (Sodium- and chloride-dependent glycine transporter 2; MS binding competition; 10 µM).
`CCCCCC=CC=C1C(=O)C=CC1CC=CCCCC(=O)O` (stereo not shown) — result for “isoTOP-ABPP competition ratio”: 6.2 (PSMB8 (Homo sapiens, UniProt P28062); competitive isoTOP-ABPP; proteome, soluble, MDA-MB-231; 100 µM, 60 min, added: iodoacetamide probe; reference: DMSO over compound-treated, higher = stronger cysteine blockade).
`O=C(O)Cc1cc2c(cc1C(=O)c1ccccc1Cl)OCO2` — result for “desensitization time constant”: 3.3 ± 0.3 ms (Gria1/Gria2; glutamate-evoked current, whole-cell patch clamp; HEK-293T; concentration not given, weighted tau, 500 ms pulse, added: glutamate).
The ΔH of `OC[C@H]1c2[nH]cnc2[C@H](O)[C@@H](O)[C@@H]1O` is reported as -18.4 ± 1.4 kJ/mol (bglA (Thermotoga maritima, UniProt Q08638); ITC; pH 6.8, 25 °C).
With `Cc1cnc2nc1Nc1cccc(c1)COC/C=C/COCc1cc(ccc1OCCN1CCOCC1)N2` the remaining binding was 82% (EGFR (Homo sapiens, UniProt P00533, L858R); binding; 0.1 µM).
For `O=C(NC1CCN(Cc2ccccc2)CC1)c1ccccn1`, “remaining specific binding” read 93.5 ± 1.8% (Sodium- and chloride-dependent glycine transporter 2; MS binding competition; 10 µM).
`C=CC(=O)N1CCCC(n2c(=O)c3ncccc3n(Cc3ccc(Oc4ccccc4)cc3)c2=O)C1` (stereo not shown) gave a melting temperature of 52.7 °C and 47.3 °C (PPIF (Homo sapiens, UniProt P30405); thermal proteome profiling; cell proteome; treated).
The koff of `Cc1ccc2c(c1)C1CC(C)(N2)c2c(C)nc3ccc(C)cc3c21` (stereo not shown) is reported as 0.0127 s⁻¹ (GAP50; binding, surface plasmon resonance; 1:1 binding model).
The iBAQ abundance of `N#CN1CC[C@H](C(=O)Nc2nc3c(s2)CN(C(=O)Cn2cc(COCCOCCOCCOCCNC(=O)CCCC[C@@H]4SC[C@@H]5NC(=O)N[C@@H]54)nn2)CC3)C1` is reported as 6.75e+08 and 3.83e+08 and 5.13e+08 (EEF1A1 (Homo sapiens, UniProt P68104); probe binding, affinity probe, neutravidin pull-down LC-MS/MS; HEK293T, cell lysate; 5 µM, 1 h, single replicate, unit not given; higher = more pulled down).
For `CC(C)=CC1OC(C)(C)C2C=C3C(=O)C(Cl)=CC(O)C3C3C(O)C4OC4C(=O)C132` (stereo not shown), the remaining binding was 69% (Tyrosine-protein kinase ABL1, phosphorylated (ABL1, Homo sapiens, UniProt P00519, E255K); cell-free assay, competition with immobilised ligand; 10 µM).
`Cc1cc(C)cc(COc2cc3c(cc2OCc2cc(C)cc(C)c2)C2CC(O)(Cc4cn(CCOCCOCCNC(=O)CCCCC5SCC6NC(=O)NC65)nn4)CC(C)N2CC3)c1` (stereo not shown) has an SILAC ratio of 1.48 (ATP synthase peripheral stalk subunit d, mitochondrial (Homo sapiens, UniProt O75947); biotinylated probe pull-down, measured: ATP5PD; 10 µM probe; reference: heavy over light).
`CC(C)Oc1cc(Cl)ccc1CNc1cc(-c2ccccc2)nc2ncnn12` has a cAMP luminescence of 39500 a.u. and 31800 a.u. and 50200 a.u. and 33000 a.u. and 64600 a.u. and 43300 a.u. and 18400 a.u. (GPR3 (Homo sapiens, UniProt P46089); cAMP reporter; human cells; 1 nM; higher is more cAMP).
`CC(=O)c1cnc(NS(=O)(=O)c2ccc(C(F)(F)F)c(Cl)c2)nc1`: “oxidized product ratio” 0.0508 and 0.0514 and 0.0767 and 0.0745 (17-beta-hydroxysteroid dehydrogenase 13; enzyme activity; human hepatocytes, HSD17B13 siRNA, culture medium; 7 h; reference: scramble siRNA control).
With `C[N+]1=C2SCCN2C[C@@H]1c1ccccc1` the Emax was 12% (acetylcholine-gated chloride channel (Haemonchus contortus, UniProt A0A219KWM7); ion current, agonist, two-electrode voltage clamp; Haemonchus contortus, Xenopus oocytes; added: acetylcholine 500 µM; reference: acetylcholine response).
With `Cc1cc(C(c2ccc(Cl)cc2)c2ccc(Cl)cc2)c2nccc(C)c2c1` the kon was 5350 M⁻¹ s⁻¹ (GAP50; surface plasmon resonance).
`CN(C)CCCSC(=S)N1CCN(C(=O)/C=C/c2coc3ccccc3c2=O)CC1` — result for “normalised MST response”: 0.233 (Nucleoprotein (N, Tomato spotted wilt virus, UniProt P25999); binding, microscale thermophoresis; 62.5 µM; dose series).
The remaining activity of `Nc1ncc(-c2cc(-c3cnn(CC(F)(F)F)c3)ncc2F)nc1C(=O)NC1CNCC(F)C1` (stereo not shown) is reported as 105% (PBK (Homo sapiens, UniProt Q96KB5); enzyme activity; 1 µM; reference: DMSO control).
Under “BLI binding response”, `CC1(C)C[C@@H](Nc2cccc(-c3sc(C(=O)O)c(OCC(=O)O)c3Cl)c2)CCN1S(=O)(=O)Cc1cccc(NC(=O)CN2CCC(c3ccc4c(c3)oc(=O)n4C3CCC(=O)NC3=O)CC2)c1` (stereo partly shown) is recorded as 0.0339 a.u. and 0.0648 a.u. (PTPN2 (Homo sapiens, UniProt P17706); degrader, bio-layer interferometry; 15.6 nM, biotinylated protein immobilised; higher = more binding).
`O=C1C[C@H](c2nc(-c3ccc(F)c4cn[nH]c34)no2)CCCN1c1ccc(F)cc1` (racemic) gave a fold change of 31 (CNR2 (Homo sapiens, UniProt P34972, F94A); GloSensor cAMP; concentration not given, CB2 mutant; reference: mutant over wild type).
For `C[C@@H](O)c1ccc(NS(=O)(=O)c2ccc(Cl)c(Cl)c2)cc1`, the Km was 15.3 µM (17-beta-hydroxysteroid dehydrogenase 13; substrate, NADH fluorescence).
`CCCCCCCCCCCCCCCc1cccc(OCC)c1C(=O)Nc1ccc(Cl)c(C(F)(F)F)c1`: “SPR binding response” 0.138 RU (KAT5 (Homo sapiens, UniProt Q92993); SPR; 0.07 µM; higher = more binding).
`O=C1c2sc(-c3ccc(N4CCC(CO)CC4)nc3F)nc2CCN1c1cccnc1` has a specific binding of 0.069 nM (TAR DNA-binding protein 43, aggregated (TARDBP, Homo sapiens, UniProt Q13148); radioligand binding; control brain sarkosyl-insoluble extract; 26.56 nM).
With `O=C(O)Cc1cc2c(cc1C(=O)c1ccccc1)OCO2` the current amplitude was 298 ± 27 pA (Gria1/Gria2; glutamate-evoked current, whole-cell patch clamp; HEK-293T; concentration not given, pH 7.4, holding potential -60 mV, added: 10 mM glutamate).
`CCCCCCCCCCCCCCCC(=O)OCC(CSC[C@H](N)C(=O)N[C@@H](CO)C(=O)N[C@@H](CCCCN)C(=O)N[C@@H](CCCCN)C(=O)N[C@@H](CCCCN)C(=O)N[C@@H](CCCCN)C(=O)NCCCCCC(=O)N[C@@H](CCCCN)C(=O)N[C@@H](CC(C)C)C(=O)N[C@H](C(=O)N[C@@H](Cc1ccccc1)C(=O)N[C@@H](Cc1ccccc1)C(=O)N[C@@H](Cc1ccc2ccccc2c1)C(=O)O)C(C)C)OC(=O)CCCCCCCCCCCCCCC` (stereo partly shown) has a fibril diameter of 20.9 nm (Amyloid-beta precursor protein, fibrillar amyloid-beta (APP, Homo sapiens, UniProt P05067); TEM; 2.0 eq, 28 h, fibril 7, added: APP 20 µM).
The Emax of `CC[C@H](C)[C@H](NC(=O)[C@H](CCC(=O)O)NC(=O)[C@H](CO)NC(=O)[C@@H](NC(=O)[C@@H](N)CO)C(C)C)C(=O)N[C@@H](CCC(N)=O)C(=O)N[C@@H](CC(C)C)C(=O)N[C@@H](CCSC)C(=O)N[C@@H](Cc1c[nH]cn1)C(=O)N[C@@H](CC(N)=O)C(=O)N[C@@H](CC(C)C)C(=O)NCC(=O)N[C@@H](CCCCN)C(=O)N[C@@H](Cc1c[nH]cn1)C(=O)N[C@@H](CC(C)C)C(=O)N[C@@H](CC(N)=O)C(=O)N[C@@H](CO)C(=O)N[C@@H](CCSC)C(=O)N[C@@H](CCC(=O)O)C(=O)N[C@@H](CCCNC(=N)N)C(=O)N[C@H](C(=O)N[C@@H](CCC(=O)O)C(=O)N[C@@H](Cc1c[nH]c2ccccc12)C(=O)N[C@@H](CC(C)C)C(=O)N[C@@H](CCCNC(=N)N)C(=O)N[C@@H](CCCCN)C(=O)N[C@@H](CCCCN)C(=O)N[C@@H](CC(C)C)C(=O)N[C@@H](CCC(N)=O)C(=O)N[C@@H](CC(=O)O)C(=O)N[C@H](C(=O)N[C@@H](Cc1c[nH]cn1)C(=O)N[C@@H](CC(N)=O)C(=O)N[C@@H](Cc1ccccc1)C(=O)O)C(C)C)C(C)C` is reported as 100% (PTH2R (Homo sapiens, UniProt P49190); cAMP accumulation, agonist; HEK293T; 40 min; reference: wild type).
The Emax of `COc1ccc(C2(C(=O)N3CCC(Nc4nc5ccccc5c(=O)[nH]4)CC3)CC2)cc1` is reported as 32.5 ± 3.4% (MRGPRD (Homo sapiens, UniProt Q8TDS7, F242A); miniGq recruitment, agonist, BRET; HEK293T; F242A mutant; reference: wild type).

A few entries again:
The koff of `Cc1ccc2c(c1)C1CC(C)(N2)c2c(C)nc3ccc(C)cc3c21` (stereo not shown) is reported as 0.0127 s⁻¹ (GAP50; binding, surface plasmon resonance; 1:1 binding model).
The iBAQ abundance of `N#CN1CC[C@H](C(=O)Nc2nc3c(s2)CN(C(=O)Cn2cc(COCCOCCOCCOCCNC(=O)CCCC[C@@H]4SC[C@@H]5NC(=O)N[C@@H]54)nn2)CC3)C1` is reported as 6.75e+08 and 3.83e+08 and 5.13e+08 (EEF1A1 (Homo sapiens, UniProt P68104); probe binding, affinity probe, neutravidin pull-down LC-MS/MS; HEK293T, cell lysate; 5 µM, 1 h, single replicate, unit not given; higher = more pulled down).
For `CC(C)=CC1OC(C)(C)C2C=C3C(=O)C(Cl)=CC(O)C3C3C(O)C4OC4C(=O)C132` (stereo not shown), the remaining binding was 69% (Tyrosine-protein kinase ABL1, phosphorylated (ABL1, Homo sapiens, UniProt P00519, E255K); cell-free assay, competition with immobilised ligand; 10 µM).
`Cc1cc(C)cc(COc2cc3c(cc2OCc2cc(C)cc(C)c2)C2CC(O)(Cc4cn(CCOCCOCCNC(=O)CCCCC5SCC6NC(=O)NC65)nn4)CC(C)N2CC3)c1` (stereo not shown) has an SILAC ratio of 1.48 (ATP synthase peripheral stalk subunit d, mitochondrial (Homo sapiens, UniProt O75947); biotinylated probe pull-down, measured: ATP5PD; 10 µM probe; reference: heavy over light).
